Measurements from different studies.
Each line is one published result; not all experiments were run side by side. Values joined by “and” are separate records of one study, mostly repeats; a detail may differ. Numbers after ± are the reported error.
Chain of UniProt P49589 (whole entry, looked up): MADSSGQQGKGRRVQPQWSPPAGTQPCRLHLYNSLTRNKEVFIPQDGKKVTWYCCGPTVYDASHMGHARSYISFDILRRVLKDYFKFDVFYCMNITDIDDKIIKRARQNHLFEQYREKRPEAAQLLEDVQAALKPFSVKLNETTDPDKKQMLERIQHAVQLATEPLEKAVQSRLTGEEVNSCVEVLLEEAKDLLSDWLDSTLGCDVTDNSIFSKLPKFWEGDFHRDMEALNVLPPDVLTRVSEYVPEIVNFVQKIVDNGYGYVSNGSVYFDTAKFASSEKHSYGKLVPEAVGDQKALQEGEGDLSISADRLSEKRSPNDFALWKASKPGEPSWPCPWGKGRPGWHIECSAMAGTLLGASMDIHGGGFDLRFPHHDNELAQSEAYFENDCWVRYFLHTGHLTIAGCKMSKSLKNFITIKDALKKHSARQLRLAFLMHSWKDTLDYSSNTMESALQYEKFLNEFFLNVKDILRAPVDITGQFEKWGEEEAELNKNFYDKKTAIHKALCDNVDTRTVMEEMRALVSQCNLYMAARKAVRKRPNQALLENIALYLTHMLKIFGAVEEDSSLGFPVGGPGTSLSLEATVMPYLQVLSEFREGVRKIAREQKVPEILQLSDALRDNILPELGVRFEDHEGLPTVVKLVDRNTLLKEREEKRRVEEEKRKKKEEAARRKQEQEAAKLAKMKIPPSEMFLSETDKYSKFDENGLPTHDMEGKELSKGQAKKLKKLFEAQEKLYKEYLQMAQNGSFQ
Chain of UniProt Q99788 (whole entry, looked up): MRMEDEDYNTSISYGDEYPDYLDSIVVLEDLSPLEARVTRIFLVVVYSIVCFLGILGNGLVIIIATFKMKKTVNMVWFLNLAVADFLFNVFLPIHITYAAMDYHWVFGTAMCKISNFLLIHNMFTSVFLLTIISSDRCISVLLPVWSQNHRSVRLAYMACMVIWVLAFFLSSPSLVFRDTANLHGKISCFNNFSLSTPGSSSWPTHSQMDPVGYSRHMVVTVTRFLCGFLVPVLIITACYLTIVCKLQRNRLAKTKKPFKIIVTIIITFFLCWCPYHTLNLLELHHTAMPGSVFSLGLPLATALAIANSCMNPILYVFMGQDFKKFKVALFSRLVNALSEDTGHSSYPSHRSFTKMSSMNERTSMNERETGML
Chain of UniProt Q16873 (whole entry, looked up): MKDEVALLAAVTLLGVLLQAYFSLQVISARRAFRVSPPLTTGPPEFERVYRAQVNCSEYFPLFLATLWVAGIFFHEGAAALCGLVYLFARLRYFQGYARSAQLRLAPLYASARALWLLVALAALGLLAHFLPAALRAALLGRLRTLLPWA

COC(=O)[C@H]1[C@@H](OC(=O)c2ccccc2)C[C@@H]2CC[C@H]1N2C — AUC(0-last) (LC-MS/MS; Sprague-Dawley rat, male, whole blood; intraperitoneal, 20 mg/kg, up to 180 min): 743 ± 43.2 ng·h/mL
O=C1c2c(O)c(=O)ccn2N([C@@H]2c3ccccc3SCc3c2ccc(F)c3F)[C@@H]2COCCN12 — plasma concentration (BALB/c mouse, plasma; oral, 5 mg/kg baloxavir marboxil every 12 h, 24 h): 5.02 ng/mL
COc1ccc2c(c1)[C@]13CCCC[C@@H]1[C@H](C2)N(C)CC3 — AUC change (human female; dose not given, day 22; baseline: day 0): -5.6%
CNC(=O)c1c(N(C)N=O)ncn1C — revertant colonies per plate (Salmonella typhimurium; mutagenicity, Ames plate incorporation; TA1535; 150 µg/plate, without S9, methanol): 18.7 ± 7
CC[C@H](C)[C@H](NC(=O)[C@H](Cc1ccccc1)NC(=O)[C@H](CCC(=O)O)NC(=O)[C@H](CCCNC(=N)N)NC(=O)[C@H](C)NC(=O)[C@H](C)NC(=O)[C@H](CCC(N)=O)NC(=O)[C@H](CCC(=O)O)NC(=O)[C@H](CCC(=O)O)NC(=O)[C@H](CC(C)C)NC(=O)[C@H](Cc1ccc(O)cc1)NC(=O)[C@H](CO)NC(=O)[C@H](CO)NC(=O)[C@@H](NC(=O)[C@H](CC(=O)O)NC(=O)[C@H](CO)NC(=O)[C@@H](NC(=O)[C@H](Cc1ccccc1)NC(=O)[C@@H](NC(=O)CNC(=O)[C@H](CCC(=O)O)NC(=O)[C@H](C)NC(=O)CCc1c[nH]cn1)[C@@H](C)O)[C@@H](C)O)C(C)C)C(=O)N[C@@H](C)C(=O)N[C@@H](Cc1c[nH]c2ccccc12)C(=O)N[C@@H](CC(C)C)C(=O)N[C@H](C(=O)N[C@@H](CCCNC(=N)N)C(=O)NCC(=O)N[C@@H](CCCNC(=N)N)C(=O)N[C@@H](CCCCNC(=O)COCCOCCNC(=O)COCCOCCNC(=O)CC[C@H](NC(=O)CCCCCCCCCCCCCCCCC(=O)O)C(=O)O)C(=O)NCC(=O)NCC(=O)N[C@@H](CO)C(=O)N[C@@H](CCCCNc1c(NCCCCCN(O)C(=O)CCC(=O)NCCCCCN(O)C(=O)CCC(=O)NCCCCCN(O)C(C)=O)c(=O)c1=O)C(=O)O)C(C)C [zirconium-89 labelled] — tissue uptake (rat, colon; sc, 3 nmol/kg, 24 h, ex vivo): 0.21 %ID/g
CC(C)(C)[C@H](NC(=O)C(F)(F)F)C(=O)N1C[C@H]2[C@@H]([C@H]1C(=O)N[C@H](C#N)C[C@@H]1CCNC1=O)C2(C)C — intrinsic clearance (mouse liver microsomes; scaled to liver): 370 mL/min/kg
NC(=O)c1nc(F)c[nH]c1=O — CC50 (hamster cells): > 400 µM
CCCc1cc(O)c2c(c1)OC(C)(C)[C@@H]1CCC(C)=C[C@@H]21 — plasma concentration (LC-MS/MS; Scn1a+/− mice, both sexes, plasma; intraperitoneal, 10 mg/kg, after hyperthermia protocol): 352 ± 28 ng/mL
COc1cc(Nc2ncc(F)c(Nc3ccc4c(n3)NC(=O)C(C)(C)O4)n2)cc(OC)c1OC — IC50 (LTC4S (Homo sapiens, UniProt Q16873)): > 10 µM
CCN(CC)CCOc1ccc2c(c1)C(=O)c1cc(OCCN(CC)CC)ccc1-2 — CC50 (human cells; 48 (unit not given)): 19.9 µM
O=C1c2c(O)c(=O)ccn2N([C@@H]2c3ccccc3SCc3c2ccc(F)c3F)[C@@H]2COCCN12 — CC50 (hamster cells): 5.3 µM
COc1cc2c(Oc3ccc4[nH]c(C)cc4c3F)ccnc2cc1OCC1(N)CC1 — grade 1 or 2 influenza-like symptoms (paediatric recurrent refractory sarcoma; 12 mg): 9.1%
C#Cc1ccc2c(c1)C(c1ccccn1)=NCc1c(-c3cnco3)ncn1-2.Cl — solubility (shake flask; 50 mM phosphate buffer; 24 h, pH 6, 25 °C): 3090 µg/mL
C[C@]1(CO)Cc2ncn(-c3ccc(C#N)c(Cl)c3)c2C(=O)O1 — subjects with drug-related TEAE (item: involuntary muscle contractions; human; 5 mg single dose): 0%
CCCCCCCCCCC(=O)O[C@H]1CC[C@H]2[C@@H]3CCC4=CC(=O)CC[C@]4(C)[C@H]3CC[C@]12C — AUC(0-24) (item: testosterone; human, plasma; oral, 237 mg testosterone undecanoate, average): 146 ng·h/mL
CO[C@H]1C[C@@H]2CC[C@@H](C)[C@@](O)(O2)C(=O)C(=O)N2CCCC[C@H]2C(=O)O[C@H]([C@H](C)C[C@@H]2CC[C@@H](OC(=O)NCCOCCOCCOCCOCCOCCOCCOCCOCCC(=O)N3CCc4cc(Cn5nc(-c6ccc7oc(N)nc7c6)c6c(N)ncnc65)ccc4C3)[C@H](OC)C2)C[C@@H](O)[C@H](C)/C=C(\C)[C@@H](O)[C@@H](OC)C(=O)[C@H](C)C[C@H](C)/C=C/C=C/C=C/1C — incidence of Fatigue TRAE (patients with advanced solid tumours; intravenous, 1.6 mg/3 mg weekly, grade ≥3): 0%
CCN(CC)C(=O)[C@@H]1C=C2c3cccc4[nH]cc(c34)C[C@H]2N(C)C1 — List of Complaints score (item: intermittent shortness of breath; healthy volunteers; dose not given, 0 to 12 h; baseline: placebo, direction not given): 0
Cc1ncc2n1-c1ccc(Cl)cc1C(c1ccccc1F)=NC2 — feeling hot incidence (healthy volunteers; oral, 5 mg, together with: momelotinib 200 mg): 8.3%
O=C(O)CCC(CP(=O)(O)O)C(=O)O (stereo not shown) — Cmax (male Wistar rat, brain; ip, 100 mg/kg): ~15 µM
NC(=O)c1ncn([C@@H]2O[C@H](CO)[C@@H](O)[C@H]2O)n1 — CC50 (hamster cells): 340 µM
C[C@H]1CN(C(=O)CC#N)[C@]12CCN(c1ncnc3[nH]ccc13)C2 — subjects with influenza-like illness (healthy human; oral, 3 mg single): 12.5%
C[C@H]1CN(c2n[nH]c3nc(N[C@H]4CC[C@H](NS(=O)(=O)CCC(F)(F)F)CC4)ncc23)CCO1 — remaining binding (Cysteine--tRNA ligase, cytoplasmic (Homo sapiens, UniProt P49589); Kinobeads competition, item: CARS; 0.032 µM, unit not given; baseline: vehicle): 0.96
COc1ccc2c(c1)[C@]13CCCC[C@@H]1[C@H](C2)N(C)CC3 — plasma concentration (C57BL/6 mice, plasma; oral, 50 µg/g, 120 min): 209 ng/mL and 14 ng/mL and 163 ng/mL and 87 ng/mL and 102 ng/mL
CC[C@H](C)[C@@H]1NC(=O)[C@@H]2CCCN2C(=O)[C@H](CC(C)C)NC(=O)[C@H](CC(C)C)NC(=O)CNC(=O)[C@@H](NC(=O)[C@@H](NC(=O)[C@H](CC(=O)O)NC(=O)CNC(=O)[C@@H](NC(=O)[C@H](C)NC(=O)CNC(=O)[C@H](CCCCN)NC(=O)[C@H](CC(C)C)NC(=O)[C@H](CC(C)C)NC(=O)[C@H](CCCCN)NC(=O)CNC(=O)[C@@H](NC(=O)[C@@H](N)CC(C)C)C(C)C)C(C)C)C(C)C)CSSC[C@@H](C(=O)O)NC1=O — log2 fold change (RNA-seq, item: Cnn2; mouse, traumatic brain injury model, frontal cortex and hippocampus; dose not given; baseline: TBI alone): -1.53
Oc1ccc2c3c1O[C@H]1[C@@H](O)CC[C@@]4(O)[C@@H](C2)N(CC2CCC2)CC[C@]314 — log2 fold change (CMKLR1 (Homo sapiens, UniProt Q99788); β-arrestin recruitment, TANGO luminescence; concentration not given; baseline: basal luminescence): 0.533

A few entries again:
COc1cc(Nc2ncc(F)c(Nc3ccc4c(n3)NC(=O)C(C)(C)O4)n2)cc(OC)c1OC — IC50 (LTC4S (Homo sapiens, UniProt Q16873)): > 10 µM
Oc1ccc2c3c1O[C@H]1[C@@H](O)CC[C@@]4(O)[C@@H](C2)N(CC2CCC2)CC[C@]314 — log2 fold change (CMKLR1 (Homo sapiens, UniProt Q99788); β-arrestin recruitment, TANGO luminescence; concentration not given; baseline: basal luminescence): 0.533
CCCCCCCCCCC(=O)O[C@H]1CC[C@H]2[C@@H]3CCC4=CC(=O)CC[C@]4(C)[C@H]3CC[C@]12C — AUC(0-24) (item: testosterone; human, plasma; oral, 237 mg testosterone undecanoate, average): 146 ng·h/mL
CNC(=O)c1c(N(C)N=O)ncn1C — revertant colonies per plate (Salmonella typhimurium; mutagenicity, Ames plate incorporation; TA1535; 150 µg/plate, without S9, methanol): 18.7 ± 7
